Assay results pooled from the literature.
Compare with care: the assays were run in different laboratories. ± marks the error that the study gave.

| SMILES | tested on | test | test system | setting | how to read | quantity | result |
| --- | --- | --- | --- | --- | --- | --- | --- |
| [123I]c1ccc2nc(-c3ccc(-n4ccnn4)nc3)cn2c1 | – | – | male Wistar rat, large intestine | intravenous, 4 MBq, 3 h | – | tissue uptake | 10.1 ± 0.134 %ID/g |
| Cc1cc(C)n(CCN(CCN)CCCCCCNC(=O)[C@@H](N)Cc2c[nH]c3ccccc23)n1.[99Tc+].[C-]#[O+].[C-]#[O+].[C-]#[O+] | – | – | BALB/c nude mice, A549 xenograft, pancreas | intravenous, 4 h | – | tissue uptake | 0.5 ± 0.08 %IA/g |
| CC(C)Cc1ccc(C(C)C(=O)N[C@@H](CCCCNC(=O)CCOCCOCCOCCOCCOCCOCCNC(=O)CN2CCN(CC(=O)[O-])CCN(CC(=O)[O-])CCN(CC(=O)[O-])CC2)C(=O)Nc2cccc3c(C(=O)NCC(=O)N4CC(F)(F)C[C@H]4C#N)ccnc23)cc1.[177Lu+3] (some centres unmarked) | – | – | mouse, U-87 MG tumour xenograft, kidneys | 4 h | – | tissue uptake | 2.7 ± 0.63 %ID/g |
| COc1cccc(OC)c1-c1cc(C(=O)NC2(C(=O)O)C3CC4CC(C3)CC2C4)nn1-c1ccc(C(=O)N(C)CCCN(C)C(=O)[C@H](CCCCNC(=O)[C@H](CC(C)C)NC(=O)C2OC2C(=O)O)NC(=O)CN2CCN(CC(=O)[O-])CCN(CC(=O)[O-])CCN(CC(=O)[O-])CC2)cc1C(C)C.[177Lu+3] (mixture of isomers) | – | – | mouse HT-29 xenograft, small intestine | 72 h post injection, biodistribution | – | tissue uptake | 0.109 %ID/g |
| CCCC[C@H](NC(=O)COCCOCCNC(=O)CN1CCN(CC(=O)O)CCN(CC(=O)O)CC1)C(=O)N[C@H]1CC(=O)NCCCC[C@@H](C(N)=O)NC(=O)[C@H](Cc2c[nH]c3ccccc23)NC(=O)[C@H](CCCNC(=N)N)NC(=O)[C@@H](Cc2ccccc2)NC(=O)[C@H](Cc2c[nH]cn2)NC1=O [fluorine-18 labelled] | – | – | C57 mice B16-F10 melanoma, brain | intravenous, 0.37 MBq, 1 h | – | tissue uptake | 0.07 ± 0.02 %ID/g |
| O=C(O)CCCOc1ccc([18F])cc1-c1cc(-c2ccccc2C(F)(F)F)n(-c2ccccc2)n1 | – | – | mouse, muscle | intravenous, dose not given, 30 min | – | tissue uptake | 2.22 ± 0.32 %ID/g |
| COc1cccc(OC)c1-c1cc(C(=O)NC2(C(=O)O)C3CC4CC(C3)CC2C4)nn1-c1ccc(C(=O)N(C)CCOCCN(C)C(=O)[C@H](CCCCNC(=O)[C@H](CC(C)C)NC(=O)C2OC2C(=O)O)NC(=O)CN2CCN(CC(=O)[O-])CCN(CC(=O)[O-])CCN(CC(=O)[O-])CC2)cc1C(C)C.[177Lu+3] (mixture of isomers) | – | – | mouse HT-29 xenograft, small intestine | 72 h post injection, biodistribution | – | tissue uptake | 0.117 %ID/g |
| CCCC[C@H](NC(=O)CNC(=O)CNC(=O)[C@H](CCCCNC(=O)[C@H](CC(=O)O)NC(=O)C(C)c1ccc(CC(C)C)cc1)NC(=O)CN1CCN(CC(=O)O)CCN(CC(=O)O)CCN(CC(=O)O)CC1)C(=O)N[C@H]1CC(=O)NCCCC[C@@H](C(N)=O)NC(=O)[C@H](Cc2c[nH]c3ccccc23)NC(=O)[C@H](CCCNC(=N)N)NC(=O)[C@@H](Cc2ccccc2)NC(=O)[C@H](Cc2c[nH]cn2)NC1=O (some centres unmarked) [lutetium-177 labelled] | – | – | C57 mouse, pancreas | intravenous, 2 h, together with: 10 µg NDP-MSH co-injection | – | tissue uptake | 0.23 ± 0.07 %ID/g |
| COc1cccc(OC)c1-c1cc(C(=O)NC2(C(=O)O)C3CC4CC(C3)CC2C4)nn1-c1ccc(C(=O)N(C)CCOCCOCCN(C)C(=O)[C@H](CCCCNC(=O)[C@H](CC(C)C)NC(=O)C2OC2C(=O)O)NC(=O)CN2CCN(CC(=O)[O-])CCN(CC(=O)[O-])CCN(CC(=O)[O-])CC2)cc1C(C)C.[177Lu+3] (mixture of isomers) | – | – | mouse, HT-29 xenograft, spleen | 72 h post injection | – | tissue uptake | 0.34 %ID/g |
| N#C[C@@H]1CC(F)(F)CN1C(=O)CNC(=O)c1ccnc2c(NC(=O)[C@@H](N)CCCCNC(=O)CCOCCOCCOCCOCCOCCOCCNC(=O)CN3CCN(CC(=O)[O-])CCN(CC(=O)[O-])CCN(CC(=O)[O-])CC3)cccc12.[177Lu+3] | – | – | mouse, U-87 MG tumour xenograft, salivary gland | 24 h | – | tissue uptake | 0.17 ± 0.07 %ID/g |
| O=C(NCC1OC2CCC=CCCC2O1)c1ccc([18F])nc1 (centres unmarked) | – | – | healthy female BALB/c nude mice, skin | intravenous, 7.4 MBq per mouse, 60 min | – | tissue uptake | 1.3 ± 0.3 %ID/g |
| CC(C)C[C@H](NC(=O)[C@@H](CCCCNC(=O)[C@@H](Cc1ccccc1)NC(=O)CCCCCCCNC(=O)CN1CCN(CC(=O)O)CCN(CC(=O)O)CCN(CC(=O)O)CC1)NC(=O)[C@H](Cc1ccc(O)cc1)NC(=O)[C@H](CO)NC(=O)[C@H](Cc1c[nH]c2ccccc12)NC(=O)[C@H](Cc1c[nH]cn1)NC(=O)[C@@H]1CCC(=O)N1)C(=O)N[C@@H](CCCNC(=N)N)C(=O)N1CCC[C@H]1C(=O)NCC(N)=O [indium-111 labelled] | – | biodistribution | male athymic nude mice, DU-145 prostate cancer xenograft, spleen | intravenous, 0.037 MBq, 0.5 h post-injection | – | tissue uptake | 0.67 ± 0.16 %ID/g |
| COc1cccc(OC)c1-c1cc(C(=O)NC2(C(=O)O)C3CC4CC(C3)CC2C4)nn1-c1ccc(C(=O)N(C)CCCN(C)CCCN(C)C(=O)[C@H](CCCCNC(=O)[C@H](CC(C)C)NC(=O)C2OC2C(=O)O)NC(=O)CN2CCN(CC(=O)[O-])CCN(CC(=O)[O-])CCN(CC(=O)[O-])CC2)cc1C(C)C.[177Lu+3] (mixture of isomers) | – | – | mouse, HT-29 xenograft, HT-29 tumour | 24 h post injection | – | tissue uptake | 9.5 %ID/g |
| Cc1ncsc1-c1ccc(C(C)NC(=O)C2CC(O)CN2C(=O)C(NC(=O)CCCCCCCCCCN2CCCC(Nc3ncc(Cl)c(Nc4ccccc4S(=O)(=O)C(C)C)n3)C2)C(C)(C)C)cc1 (centres unmarked) | 22Rv1 | RNA-seq, item: MATN1-AS1 | – | concentration not given | relative to: DMSO | log2 fold change | -4.52 |

Excerpt of the above:
| SMILES | tested on | test | test system | setting | how to read | quantity | result |
| --- | --- | --- | --- | --- | --- | --- | --- |
| COc1cccc(OC)c1-c1cc(C(=O)NC2(C(=O)O)C3CC4CC(C3)CC2C4)nn1-c1ccc(C(=O)N(C)CCCN(C)CCCN(C)C(=O)[C@H](CCCCNC(=O)[C@H](CC(C)C)NC(=O)C2OC2C(=O)O)NC(=O)CN2CCN(CC(=O)[O-])CCN(CC(=O)[O-])CCN(CC(=O)[O-])CC2)cc1C(C)C.[177Lu+3] (mixture of isomers) | – | – | mouse, HT-29 xenograft, HT-29 tumour | 24 h post injection | – | tissue uptake | 9.5 %ID/g |
| COc1cccc(OC)c1-c1cc(C(=O)NC2(C(=O)O)C3CC4CC(C3)CC2C4)nn1-c1ccc(C(=O)N(C)CCCN(C)C(=O)[C@H](CCCCNC(=O)[C@H](CC(C)C)NC(=O)C2OC2C(=O)O)NC(=O)CN2CCN(CC(=O)[O-])CCN(CC(=O)[O-])CCN(CC(=O)[O-])CC2)cc1C(C)C.[177Lu+3] (mixture of isomers) | – | – | mouse HT-29 xenograft, small intestine | 72 h post injection, biodistribution | – | tissue uptake | 0.109 %ID/g |
